Results pooled from the literature.
Parts stem from different laboratories: compare values within a part only. Changes are numbered by the printed parent chain.

Series 1 — technique: RNAcompete; form: RNA; sample: in vitro; concentration: 20 nM; notes: 7-mer, probes averaged, single round; reference: mean of 7-mers; reading: higher = stronger binding
Target: PABPC1L2, full length, GST fusion (mouse, UniProt A0ABA7IW68)
Residues (chain): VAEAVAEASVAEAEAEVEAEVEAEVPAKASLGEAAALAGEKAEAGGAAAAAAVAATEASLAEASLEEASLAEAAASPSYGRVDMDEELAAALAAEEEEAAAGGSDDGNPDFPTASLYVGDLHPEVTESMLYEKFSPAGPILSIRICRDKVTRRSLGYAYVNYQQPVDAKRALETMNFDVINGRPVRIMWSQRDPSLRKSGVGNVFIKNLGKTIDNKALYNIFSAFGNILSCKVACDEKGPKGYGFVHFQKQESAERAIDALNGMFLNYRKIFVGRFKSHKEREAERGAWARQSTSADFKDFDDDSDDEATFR
Sequence | 7-mer Z-score
AUGAGGG | 0.211
AGAAACU | 0.805
UAAUUAA | 0.00617
GCAACAG | 0.0315
AGACCCU | -0.34
CUGUUAU | -0.383
GAAGCAG | -0.0391
UUCCGUA | -0.367
CUGUGCA | -0.0736
UGCCUAG | -0.19
GUGGAAU | 0.0569
UUUAACC | -0.135
ACCUAGU | -0.298
CGCGCAU | -0.282
AAUCACC | -0.0319
UGGAUUA | -0.135
CAUGGGC | 0.129

Series 2 — target: UBE2R2 UBC core domain (UniProt Q712K3); technique: yeast two-hybrid; sample: yeast; notes: mostly zero background; reference: not given; reading: higher = stronger interaction
UniProt Q712K3, sequence (whole entry, looked up): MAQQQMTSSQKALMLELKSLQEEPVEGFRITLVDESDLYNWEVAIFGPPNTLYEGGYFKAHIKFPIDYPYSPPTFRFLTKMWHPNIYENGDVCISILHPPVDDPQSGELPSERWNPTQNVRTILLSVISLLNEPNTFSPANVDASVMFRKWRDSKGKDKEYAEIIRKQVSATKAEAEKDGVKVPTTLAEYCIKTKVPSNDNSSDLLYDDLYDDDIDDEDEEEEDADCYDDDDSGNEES
B1: RNF121 RING domain (UniProt Q9H920); chain MPTKHLSDSVCAVCGQQIFVDVSEEGIIENTYRLSCNHVFHEFCIRGWCIVGKKQTCPYCKEKVDLKRMFS
B2: DZIP3 RING domain (UniProt Q86Y13); chain PDEEEEEEEPCVICHENLSPENLSVLPCAHKFHAQCIRPWLMQQGTCPTCRLHVLLPEEFP
B3: ZMIZ2 RING domain (UniProt Q8NF64); chain GTIPGTPGPNGEDGVEQTAIKVSLKCPITFRRIQLPARGHDCRHIQCFDLESYLQLNCERGTWRCPVCNKTALLEGLEVDQYMLGILIYIQNSDYEEITIDPTCSWK
Sequence | lacZ reporter activity
B1 (RNF121 RING domain) | 0
GSRLQEINDVCAICYHEFTTSARITPCNHYFHALCLRKWLYIQDTCPMCHQKVYIEDDIK (RNF139 RING domain (UniProt Q8WU17)) | 0
B2 (DZIP3 RING domain) | 0
AMYLQENGIDCPKCKFSYALARGGCMHFHCTQCRHQFCSGCYNAFYAKNKC (RNF31 RING domain (UniProt Q96EP0)) | 0
PEDRESLKSACVVCLSSFKSCVFLECGHVCSCTECYRALPEPKKCPICRQAITRVIPLY (MUL1 RING domain (UniProt Q969V5)) | 0
B3 (ZMIZ2 RING domain) | 0

Series 3 — technique: universal PBM; form: double-stranded DNA, one strand shown; sample: in vitro; concentration: not given; reading: higher = stronger binding
Target: Sal-like protein 4, full length isoform B (SALL4, Homo sapiens, UniProt Q9UJQ4-2, residues 1-616)
Notes: 8-mer, flanks averaged, mean of replicates
Sequence | E-score
ACAAGAGG | -0.0836
CACACCGA | -0.117
GCATTAGA | 0.186
ATATGAAG | 0.32
GTAAGCCA | -0.116
CAACAAGG | 0.0475
CAGAACGA | 0.0498
CCTTGAGC | -0.135
CCCCAAAC | -0.148
ACAGACGC | -0.106
CCTTGACA | -0.0953
AGCAAGAT | 0.0298
GCCCATCA | -0.18
ACCACCGC | -0.285
GCTGTTTA | 0.151

Series 4 — target: DDIT3, bZIP domain (human); technique: DHFR protein complementation; sample: yeast; reference: wild-type JUN-FOS pair; reading: higher = stronger binding
Notes: single substitutions, most at no-binding floor
Starting sequence: JUN, bZIP domain (human); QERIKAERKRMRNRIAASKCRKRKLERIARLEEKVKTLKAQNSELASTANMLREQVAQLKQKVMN; partner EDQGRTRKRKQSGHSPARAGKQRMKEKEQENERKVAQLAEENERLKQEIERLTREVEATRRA
Change | binding fitness [natural log]
R53N | -0.63
E44D | -0.0652
A29S | -0.0693
Q58P | -0.996
S47N | 0.0898
L52T | -1.14
E32I | -0.279
I28D | -0.253
R53K | 0.00703
K34Y | -0.0947

Series 5 — target: CCND1, cyclin fold, Cln2 fusion (human); technique: yeast growth competition, sequencing; sample: yeast; notes: strong parent motif; reference: not given; reading: higher = stronger binding
Starting sequence: CDKN1A docking peptide (human); SKACRRLFGPVDS; partner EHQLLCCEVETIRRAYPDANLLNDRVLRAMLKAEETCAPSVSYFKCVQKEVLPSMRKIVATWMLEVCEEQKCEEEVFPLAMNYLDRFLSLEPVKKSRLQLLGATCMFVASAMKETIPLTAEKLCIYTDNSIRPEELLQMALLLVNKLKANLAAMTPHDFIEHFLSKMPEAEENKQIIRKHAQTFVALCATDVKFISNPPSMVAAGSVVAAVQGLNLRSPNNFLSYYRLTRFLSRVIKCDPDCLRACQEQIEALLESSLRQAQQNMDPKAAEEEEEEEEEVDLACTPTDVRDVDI
Change | normalised enrichment score
SKACSRLFGPVDS [R5S] | -0.0979
SKYCRRLFGPVDS [A3Y] | 0.13
SKACRRLFGVVDS [P10V] | 1.37
SKACRRLFGNVDS [P10N] | 2.13
SKACRRLFKPVDS [G9K] | 1.21
SKACRRLPGPVDS [F8P] | 0.0554
SKACRCLFGPVDS [R6C] | 3.3
SKACRFLFGPVDS [R6F] | 0.656
SKVCRRLFGPVDS [A3V] | 1.62
SKACRPLFGPVDS [R6P] | 0.347
SKACRRLFGPVPS [D12P] | 2.19
SKACRRLFEPVDS [G9E] | 3.56
SKACRRLFMPVDS [G9M] | 2.69

Series 6 — technique: protein-binding microarray; form: double-stranded DNA, one strand shown; sample: in vitro; concentration: 940 nM top; notes: 60-bp whole probe; added: salmon DNA 0.4 mg/ml; reference: random background probes; reading: higher = stronger binding; all sequences stand within: GCCTAGCAC … GTCTTGATTCGCTTGACGCTGCTG
Target: Interferon regulatory factor 5, full length, phosphomimetic (IRF5, Homo sapiens, UniProt Q13568-2, residues 1-514, S451D/S453D/S456D/S462D)
Sequence | fitted relative affinity [z-score]
TTAGGTCTCGGGACTGGGTTAGTGCTA | 1.54
TTAGGTATCCTTCTCCTCTAGTGCTAG | 0.673
TTAGGTATCGGGACTGAGTTAGTGCTA | 4.09
TTACATTTCAGACTGGATTAGTGCTAG | 0.0245
TCAGGACTGACTCTTCAGACTGTGCTA | -0.401
TTAGATTTCAGTTTCGAATAGTGCTAG | 4.63
GTAGGTTTCGGACTGGGTTAGTGCTAG | 6.41
TCAAAATTTTTTTTCTAACTGTGCTAG | 0.249
TCATATATTTTAATCACACTGTGCTAG | 0.648
GACGGTTTCCTCCTCCTGACGTGCTAG | 0.862
TTAGGGCTGCTTATCCTTTAGTGCTAG | -0.33

Series 7 — technique: RNA Bind-n-Seq; form: RNA; sample: in vitro; concentration: 1 µM; notes: whole 134-nt RNA, ends assumed; added: 150 mM KCl; reference: input library; reading: higher = stronger binding
Target: Ras GTPase-activating protein-binding protein 1, RRM domain (G3BP1, Homo sapiens, UniProt Q13283)
UniProt Q13283, sequence (whole entry, looked up): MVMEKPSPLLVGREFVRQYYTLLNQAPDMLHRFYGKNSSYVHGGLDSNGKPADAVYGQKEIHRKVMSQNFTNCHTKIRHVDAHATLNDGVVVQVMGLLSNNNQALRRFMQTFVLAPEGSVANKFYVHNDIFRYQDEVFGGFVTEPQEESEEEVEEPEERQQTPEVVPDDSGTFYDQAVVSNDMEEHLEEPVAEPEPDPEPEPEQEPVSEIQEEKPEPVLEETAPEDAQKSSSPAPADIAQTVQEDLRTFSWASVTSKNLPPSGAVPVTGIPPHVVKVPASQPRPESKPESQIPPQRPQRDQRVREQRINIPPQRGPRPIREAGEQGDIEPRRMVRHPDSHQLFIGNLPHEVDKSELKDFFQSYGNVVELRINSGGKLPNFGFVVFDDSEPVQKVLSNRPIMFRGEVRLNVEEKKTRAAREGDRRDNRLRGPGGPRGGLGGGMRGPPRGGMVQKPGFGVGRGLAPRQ
All sequences stand within: GGGAGUUCUACAGUCCGACGAUC … UGGAAUUCUCGGGUGUCAAGG
Sequence | log2 enrichment
CUGUGCUACACAUCGUAUGUACCGAAUCGGGGCCCCCCGGGGCCCCCCGGGGCCCCCCGGGAAAGUAUUAUGUUACGCCGUUCGGAUCUG | -0.753
UUUCUGUGUGCUUAGGUGCCCGAGCUACUGAGGGUCUAAGUCCGGGCAGCCGAAGAGUGUGGUAGGUAACGGUCCUCAGCGCAAGGGUCA | 0.0765
UGGCCCUGGUGGCAUGCGGGGAGGAAGAGGCGGCCUCAUGGAUCGUGGUGGUCCCGGUGGAAUGUUCAGAGGUGGCCGUGGUGGAGACAG | 0.982
CCUCAAGUCCUGUGCUACACAUCGUAUGUACCGAAUCGGGCGGGCGGCGGGGAAAGUAUUAUGUUACGCCGUUCGGAUCUGCACUUCCAG | -0.0276
UGGCCCUGGUGGCAUGCGGGGAGGAAGAGGUGGCCUCAUGGAUCGUGGUCGUCCCGGUGGAAUGUUCAGAGGUGGCCGUGGUGGAGACAG | 0.086
CCUGUGCUACACAUCGUAUGUACCGAAUCGGGGCCCCCCGGGGCCCCCCGGCCCCCCGGGAAAGUAUUAUGUUACGCCGUUCGGAUCUGC | -0.616
UCAAGUCCUGUGCUACACAUCGUAUGUACCGAAUCGGAAAAAAAGGAGGUUUGGAAAGUAUUAUGUUACGCCGUUCGGAUCUGCACUUCC | -0.245
GUCCUGUGCUACACAUCGUAUGUACCGAAUCAAAUUUUUUUAAACCCAAACCCCCAAAAAAGUAUUAUGUUACGCCGUUCGGAUCUGCAC | -1.24
UGGCCCUGGUGGCAUGCGGGGAGGAAGAGGUGGCCUCAUGGAGCGUGGUGGUCCCGGUGGAAUGUUCAGAGGUGGCCGUGGUGGAGACAG | 0.971
GUCCUGUGCUACACAUCGUAUGUACCGAAUCGGAAAAAAGGGGAAAAAAGGAAAAAAGGAAAGUAUUAUGUUACGCCGUUCGGAUCUGCA | 0.0555

For quick reference, copied from above (series 2):
Sequence | lacZ reporter activity
AMYLQENGIDCPKCKFSYALARGGCMHFHCTQCRHQFCSGCYNAFYAKNKC (RNF31 RING domain (UniProt Q96EP0)) | 0
GSRLQEINDVCAICYHEFTTSARITPCNHYFHALCLRKWLYIQDTCPMCHQKVYIEDDIK (RNF139 RING domain (UniProt Q8WU17)) | 0
B1 (RNF121 RING domain) | 0
B2 (DZIP3 RING domain) | 0
B3 (ZMIZ2 RING domain) | 0
PEDRESLKSACVVCLSSFKSCVFLECGHVCSCTECYRALPEPKKCPICRQAITRVIPLY (MUL1 RING domain (UniProt Q969V5)) | 0
